# Measured values collected from several papers.
# Every numbered part comes from another study and shows a few of its results, in no order.

# Set 1 — method: RNA Bind-n-Seq; molecule type: RNA; medium: in vitro; concentration: 1 µM; setting: whole 134-nt RNA, ends assumed; with: 150 mM KCl; relative to: input library; direction: higher = stronger binding
# Target: Ras GTPase-activating protein-binding protein 1, C-terminal RGG region (G3BP1, Homo sapiens, UniProt Q13283)
# Chain of UniProt Q13283 (whole entry, looked up): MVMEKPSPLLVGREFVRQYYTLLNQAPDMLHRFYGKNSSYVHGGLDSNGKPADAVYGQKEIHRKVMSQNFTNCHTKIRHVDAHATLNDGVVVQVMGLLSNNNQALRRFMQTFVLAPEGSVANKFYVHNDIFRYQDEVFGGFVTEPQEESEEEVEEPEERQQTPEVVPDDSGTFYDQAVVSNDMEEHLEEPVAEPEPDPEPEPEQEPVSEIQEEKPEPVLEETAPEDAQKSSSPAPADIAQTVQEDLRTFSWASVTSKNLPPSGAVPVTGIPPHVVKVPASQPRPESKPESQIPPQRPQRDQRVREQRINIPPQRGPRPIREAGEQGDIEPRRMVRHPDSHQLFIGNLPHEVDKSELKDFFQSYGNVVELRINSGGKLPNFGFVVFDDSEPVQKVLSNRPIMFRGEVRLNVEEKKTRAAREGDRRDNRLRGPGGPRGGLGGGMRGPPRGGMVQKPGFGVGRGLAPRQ
Oligonucleotide,log2 enrichment
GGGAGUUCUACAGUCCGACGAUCUCCCUGUCCAAGCUGAGCGCCCUCAACGAGAGCCUUGCUCAGGACAAGUUGGAUCUGAACUGCCUUGUCACCCAGGUACACUGUGCACCUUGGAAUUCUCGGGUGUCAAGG,1.22
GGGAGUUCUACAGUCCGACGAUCUCCUGUGCUACACAUCGUAUGUACCGAAUCAAACCCAAACCCCCCCAAACCCCCCCAAAAAAGUAUUAUGUUACGCCGUUCGGAUCUGCAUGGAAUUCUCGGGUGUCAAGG,-0.675
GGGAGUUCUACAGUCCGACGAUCACCAUGCAGGUGGGCAUCUUUGGGAAGUGGGGCAAGGGGGGGAUAGGGAGGGGGGUAACACUUUGGGAACAGGUGGUCCCAGGUCGGUUCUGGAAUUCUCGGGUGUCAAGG,1.69
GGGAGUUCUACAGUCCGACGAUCUGGCCCUGGUGGCAGGCGGGGAGGAAGAGGUGGCCUCAUGGAUCGUGGUGGUCCCGGUGGAAUGUUCAGAGGUGGCCGUGGUGGAGACAGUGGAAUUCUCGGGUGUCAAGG,2
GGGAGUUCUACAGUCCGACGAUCCCUGUGCUACACAUCGUAUGUACCGAAUCGGGGUUUGGGGAAAAAAAGGGGUUUUUGGGGAAAGUAUUAUGUUACGCCGUUCGGAUCUGCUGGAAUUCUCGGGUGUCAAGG,1.24
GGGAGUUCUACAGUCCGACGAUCUAACUUUAGAGGAGGAUCUGAUGGAUAUGGCAGUGGACGUGGAUUUGGGGAUGGCUAUAAUGGGUAUGGAGGAGGACCUGGCGGUGGCAAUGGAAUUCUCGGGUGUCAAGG,-0.628
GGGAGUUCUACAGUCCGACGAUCUCCUGUGCUACACAUCGUAUGUACCGAAUCGGGUUUUUUUGGGAAAAAGGGUUUUUGGGAAAGUAUUAUGUUACGCCGUUCGGAUCUGCAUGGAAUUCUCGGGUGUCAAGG,-0.69
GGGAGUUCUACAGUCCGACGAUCAGUCCUGUGCUACACAUCGUAUGUACCGAAUCGGGGUUUUUGGGGAAAGGGGAGGGGAAAGUAUUAUGUUACGCCGUUCGGAUCUGCACUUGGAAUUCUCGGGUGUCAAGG,3.12
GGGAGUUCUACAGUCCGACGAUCUGGCCCUGGUGGCAUGCGGGGAGGAAGAGGAGGCCUCAUGGAUCGUGGUGGUCCCGGUGGAAUGUUCAGAGGUGGCCGUGGUGGAGACAGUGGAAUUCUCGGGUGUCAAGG,2.53

# Set 2 — method: RNA Bind-n-Seq; molecule type: RNA; medium: in vitro; concentration: 365 nM; relative to: no-protein control; direction: higher = stronger binding
# Target: RNA binding protein fox-1 homolog 2, RRM domain, GST-SBP tag (RBFOX2, Homo sapiens, UniProt O43251-10, residues 100-194)
# Setting: natural RNA segment, single round, ends assumed
# Construct (chain): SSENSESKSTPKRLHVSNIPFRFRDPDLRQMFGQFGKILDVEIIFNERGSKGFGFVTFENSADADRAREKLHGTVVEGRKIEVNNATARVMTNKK
Oligonucleotide,RBNS enrichment (R)
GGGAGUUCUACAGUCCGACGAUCAAGAAAGAAUAAUUUCCAUUAAGUAGAAUUCCAGUUGUCUUUCUGUUUCUAAAACACAGAACUUACAAGAGCCACAGGAGCCAAUUAUAGCACCUGACAGAAUACUUCUCUGGAAUUCUCGGGUGCCAA,0.672
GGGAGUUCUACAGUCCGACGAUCGGCUGUUCUCAUCUGGGGCUGUCUCUUGAUUAAGGCUGUCACCUGUUUGUAUAGGGACCAUGUUUCCCAACGCACUUUGAGUGCAGUUUAGGAGGUAUCCUUUGGAUGCUUGGAAUUCUCGGGUGCCAA,0.369
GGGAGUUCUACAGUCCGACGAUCUACAAGAUUUACUAAGUGGGAUAAGCUAAUUAUACUUUUUGUUGUGGAUAAACAAAUGCUUGUUGAUAGCCUUUUUCUAUCAAGAAACCAAGGAGCUAAUUAUUAAUAACUGGAAUUCUCGGGUGCCAA,0.319
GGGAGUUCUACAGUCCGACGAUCUUUCAGACAUAACCAACUUAUAAAUGACCUAUUUCUUCAGGCUAGCUUCUACAACACUGACCUCCAUGAGGUAUUUACUGUGCAAUAACAGAUUCGUCUUCUGAGAGCUUUGGAAUUCUCGGGUGCCAA,0.275
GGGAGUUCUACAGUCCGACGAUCCAGGCUUGUGUCCCCACUGCUGCAUCGUGGCGGGGUGUCACAGACCCUCUGCAGCCCCUGGCUGCCCUGGACUGUGCAGAGAUGCCUGACUCCAGGGAAACCUGAAAGCAUGGAAUUCUCGGGUGCCAA,0.948
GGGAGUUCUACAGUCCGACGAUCAAAAAGCACAGAGAAAUGUUUAACUGUUUGACUCUUAUGAUACUUCUUGGAAACUAUGACAUCAAAGAUAGACUUUUGCCUAAGUGGCUUAGCUGGGUCUUUCAUAGCCAUGGAAUUCUCGGGUGCCAA,0.336
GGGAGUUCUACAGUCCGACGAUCUUUCUACUGGAGAGACCCUCACUUUGGGGUGAUGGUCCUGACCUAGACCCAGAGUCUGGAAGCUUCACACUGAGUUGGUGACUCCAGCUUCUAUCUCCUGGAGGUCCCAAUGGAAUUCUCGGGUGCCAA,0.287
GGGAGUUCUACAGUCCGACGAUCGAAUUUUAGUCUGUUUUAGAGGUCAGUAAAUAAAAUACAAGCAUCCUGGUUUUGUUGAAGUUUUGGAUUUCUUGUAUAGGUUUCUUUUGUUUCCUUCUCUUUGUUUAGCUUGGAAUUCUCGGGUGCCAA,1.37

# Set 3 — method: protein binding microarray; molecule type: double-stranded DNA, one strand shown; medium: in vitro; concentration: not given; relative to: not given; direction: higher = stronger binding
# Target: Histone acetyltransferase KAT6A, both winged helices, GST fusion (KAT6A, Homo sapiens, UniProt Q92794, residues 1-181)
# Setting: 8-mer, flanks averaged, mean of 2 arrays, mostly near background
# Residues (chain): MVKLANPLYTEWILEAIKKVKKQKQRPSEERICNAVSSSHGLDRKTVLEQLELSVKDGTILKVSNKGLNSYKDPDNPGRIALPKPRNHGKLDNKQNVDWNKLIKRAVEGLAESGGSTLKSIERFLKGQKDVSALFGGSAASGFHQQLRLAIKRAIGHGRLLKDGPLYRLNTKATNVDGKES
Oligonucleotide,E-score
AATGGCGT,0.0488
CGTATCAG,0.049
CGTTGCGA,0.0726
ACTGTTGC,-0.0679
ACGTAATA,-0.0813
GAAGCCGA,0.068
CGTCATGA,0.108
AAGCCGGC,0.323
CTACACTC,-0.0421
TCATCGAA,-0.0823
GAAGCACA,-0.181
AGTCCCGA,0.0385
CAATGCAA,-0.137
ATCAGGCG,0.0662
CCTGGTCG,-0.0105
CATGGCTA,-0.196
AAGACTGG,-0.0504

# Set 4 — method: RNA Bind-n-Seq; molecule type: RNA; medium: in vitro; concentration: 100 nM; relative to: input RNA pool; direction: higher = stronger binding
# Target: RING finger protein unkempt homolog, zinc fingers 1-6, SBP tag (UNK, Homo sapiens, UniProt Q9C0B0, residues 30-357)
# Chain of UniProt Q9C0B0 (30-357, looked up): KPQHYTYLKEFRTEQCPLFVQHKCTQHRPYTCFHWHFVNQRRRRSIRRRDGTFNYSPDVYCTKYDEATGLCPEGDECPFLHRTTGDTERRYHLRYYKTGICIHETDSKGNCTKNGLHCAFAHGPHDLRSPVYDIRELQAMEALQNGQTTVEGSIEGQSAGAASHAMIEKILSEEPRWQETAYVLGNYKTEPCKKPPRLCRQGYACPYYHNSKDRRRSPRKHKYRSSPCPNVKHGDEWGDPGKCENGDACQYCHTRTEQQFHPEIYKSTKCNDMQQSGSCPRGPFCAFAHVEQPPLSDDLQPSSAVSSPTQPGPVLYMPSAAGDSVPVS
# Setting: RNA with constant flanks, vertebrate orthologous sites, ends assumed
Oligonucleotide,bound/input enrichment [ratio]
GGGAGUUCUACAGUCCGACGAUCAAAUCUACUUCAUGCCGUGGACUCCUUACAGGACAGACACUCUCAUCGAGUACUCCUCCCUGGACGACUUCCAAAACGCUCGGCAGACCAUCACCUACAAGCUGCCCCACCGGGUGGACGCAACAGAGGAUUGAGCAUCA,0.653
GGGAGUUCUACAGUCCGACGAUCGCCAAAGGCCAAAUCCCCUCCCCCCUUCUACUGCUUCUACCAACUGGAAGCACAGAGAACUAGAAGUUCAUUUUGUUUUUAAAAAUAUAUGUUGAUUUCUUGUAACAUCCAAUAGGAAUGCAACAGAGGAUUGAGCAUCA,0.719
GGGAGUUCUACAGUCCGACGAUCAUAGAAAAGCCACCUUUUAUUCCCAUCCCUCCCAAUCUCCUCCCCUCAAUUCCAAAUACUCUAUUUUUGGGUUCUUGUUUUAGACUUCAUUAUUAAAUAAAUCGACAGUUUUAAUUUUCACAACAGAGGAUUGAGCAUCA,1.39
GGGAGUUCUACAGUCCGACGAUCCUUAUUUCUUCUUUCCUUACUUUCUUUUUUCUUUCGUUUCUUUUUUUUUUUUUUUUUUGGUAGUUGUUGUUACCCACGCCAUUUUACGUCUCCUUCACUGAAGGGCUAGAGUUUUAACUUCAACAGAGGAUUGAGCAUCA,3.46
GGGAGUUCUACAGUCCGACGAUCCAAUUCAAUGGUUGAGGGCUCAGAACUCAAAAAGGUUCGCUCCAACUCCAGGAUUUACCAUAGGUAUUUUUUACUGGAUGCCGACAUGCAGAGCCUGAGGUGGGAACCAUCUAAGAAGGACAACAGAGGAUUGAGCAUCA,0.114
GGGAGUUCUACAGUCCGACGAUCAUCCCUCAGUGACAGUAUGCCAUCUGUAGCAGAUUCUCACUCUAGUCAUUUUUCUGAAUUUAGUUGUUCUGACCUAGAAAGCAUGAAAACUUCUUGCAGUCAUGGUUCCAAUGAUUAUCACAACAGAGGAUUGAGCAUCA,1.59
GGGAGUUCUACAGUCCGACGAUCGACCUCCUGAACUUCUAGCUUUCAAGCUGUGGCUGUUUUAGAUACUGGUUUUAUUUUCGUUACAGUUUUUCCCUGUUUCCCACCUUCUCUCCCCCUCUUCCCAAGGUCUGACUCAUGGAUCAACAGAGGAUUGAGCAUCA,1.43
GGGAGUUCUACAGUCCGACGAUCAAGGAGCAGCUUAGGCUGCUUGAGCUUUGGGGAAAUGAGCUUUUGCUUUUUGUAUUUAAAUAGGAUACUUUUAUAUGAUGGGUGCUUUUGAGUGACUGCAGCAGGCUCUAUUUCAGAGGUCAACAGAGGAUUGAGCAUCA,0.811

# Excerpt of the above (set 1):
Oligonucleotide,log2 enrichment
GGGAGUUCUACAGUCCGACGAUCACCAUGCAGGUGGGCAUCUUUGGGAAGUGGGGCAAGGGGGGGAUAGGGAGGGGGGUAACACUUUGGGAACAGGUGGUCCCAGGUCGGUUCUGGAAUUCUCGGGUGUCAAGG,1.69
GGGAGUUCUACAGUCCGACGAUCUGGCCCUGGUGGCAGGCGGGGAGGAAGAGGUGGCCUCAUGGAUCGUGGUGGUCCCGGUGGAAUGUUCAGAGGUGGCCGUGGUGGAGACAGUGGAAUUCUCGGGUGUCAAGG,2
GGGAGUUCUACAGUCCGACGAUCCCUGUGCUACACAUCGUAUGUACCGAAUCGGGGUUUGGGGAAAAAAAGGGGUUUUUGGGGAAAGUAUUAUGUUACGCCGUUCGGAUCUGCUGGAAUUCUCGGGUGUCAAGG,1.24
